Assay results from different studies.
Lines come from different studies, so protocols differ. ± marks the error that the study gave. In brackets after ≈: the same amount, converted by molar mass.
cyp121: Mycocyclosin synthase (cyp121, Mycobacterium tuberculosis, UniProt P9WPP7)

Sequences of proteins named here, by UniProt entry; tags and fusion partners are left off.
UniProt P9WPP7, whole entry: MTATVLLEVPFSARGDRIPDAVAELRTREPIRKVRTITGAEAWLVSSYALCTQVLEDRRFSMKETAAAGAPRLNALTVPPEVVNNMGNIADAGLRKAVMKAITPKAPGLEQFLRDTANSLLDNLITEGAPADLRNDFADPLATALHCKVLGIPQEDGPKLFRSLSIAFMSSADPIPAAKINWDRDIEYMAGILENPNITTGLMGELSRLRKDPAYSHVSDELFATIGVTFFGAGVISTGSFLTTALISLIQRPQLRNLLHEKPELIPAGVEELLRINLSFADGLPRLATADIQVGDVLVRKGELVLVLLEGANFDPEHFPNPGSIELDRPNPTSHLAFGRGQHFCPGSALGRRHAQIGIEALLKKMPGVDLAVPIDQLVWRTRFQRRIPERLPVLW

SMILES | tested on | test | system | setting | scale | endpoint | result
C=CC(c1ccc(-c2ccc3c(c2)OCO3)cc1)n1ccnc1 (single isomer, unassigned) | cyp121 |  |  | enantiomer E1 |  | Kd | 9.6 µM
C[C@H](CS)C(=O)N[C@H](Cc1c[nH]c2ccccc12)C(=O)O | Escherichia coli |  | IMP-1 producing | 10 µM, added: meropenem |  | MIC of meropenem | 32 µg/mL
C=CC(=O)Nc1cc(-n2c(=O)ccc3cnc4ccc(-c5cn[nH]c5)cc4c32)ccc1C | HeLa | cell growth |  | 72 h |  | GI50 | > 10 µM
CN1CC[C@]23c4c5ccc(O)c4O[C@H]2c2ncc(-c4ccc(Cl)cc4)cc2C[C@@]3(OCCCc2ccccc2)[C@H]1C5 |  | tolerance | CD-1 mouse, HIV neuropathy | sc, 10 mg/kg twice daily, 3 days |  | days to zero efficacy | 4.9 days
CCCCCCCCCCCCNC(=O)N[C@H](C(=O)N[C@H]1/C=C/CCNC(=O)/C=C/[C@H](C)NC1=O)C(C)C | MM1.S bortezomib-resistant | cell viability |  |  | reference: EC50 resistant over parental MM1.S | resistance index | 1.7 ± 0.3
NC[C@@H](NC[C@@H]1CCCN1C[C@@H](CO)NC[C@@H](NCCC1CC2CCC1C2)c1ccccc1)c1ccccc1 (some centres unmarked) | Escherichia coli | bacterial growth |  | compound alone |  | IC50 | > 24 µM
CCC(c1ccc(-c2ccc(OC(F)(F)F)cc2)cc1)n1ccnc1 (centres unmarked) | cyp121 | binding |  |  |  | Kd | 5 ± 0.49 µM
CC(C)C(C(=O)N(Cc1ccc(C2CCCCC2)cc1)c1ccc(C(=O)O)cc1)N(C)S(=O)(=O)c1c(F)c(F)c(F)c(F)c1F (centres unmarked) | Pa03C-CAF19 co-culture (2:1) | cell growth, MTS |  | 72 h |  | IC50 | 4.7 ± 0.1 µM
NC[C@@H](NC[C@@H]1CCCN1C[C@@H](CO)NC[C@@H](NCCc1ccc(Cl)c(Cl)c1)c1ccccc1)c1ccccc1 | Klebsiella pneumoniae | bacterial growth |  | 24 µM, fold shift of IC90, added: amikacin |  | potentiation of amikacin | 2 fold
Cc1ccc(-c2csc(NP(=O)(O)OCC3OC(n4c[n+](Cc5ccccc5)c5c(=O)[nH]c(NC(=O)c6ccccc6)nc54)C4OC(C)(C)OC34)n2)cc1 (centres unmarked) | HepG2 | cell growth, SRB |  |  |  | IC50 | 69.5 ± 4.99 µM
NC[C@@H](NC[C@@H]1CCCN1C[C@@H](CO)NC[C@@H](NCCc1ccc(-c2ccccc2)cc1)c1ccccc1)c1ccccc1 | Acinetobacter baumannii | bacterial growth |  | 8 µM, fold shift of IC90, added: amikacin |  | potentiation of amikacin | 1.9 fold
CO[C@H]1[C@H](O[C@H]([C@H]2O[C@@H](n3ccc(=O)[nH]c3=O)[C@H](O)[C@@H]2O)[C@H](NCCCNC(=O)[C@@H](NC(=O)[C@@H](NC(=O)N[C@H](C(=O)O)C(C)C)[C@@H]2CCNC(=N)N2)[C@@H](OC(=O)CCCCCCCCCCCCNC(=N)N)C(C)C)C(N)=O)O[C@H](CN)[C@H]1O | Saccharomyces cerevisiae | alamar blue | BY4742 |  |  | MIC50 | > 35 µg/mL
NC[C@@H](NC[C@@H]1CCCN1C[C@@H](CO)NC[C@@H](NCCC12CC3CC(CC(C3)C1)C2)c1ccccc1)c1ccccc1 | Klebsiella pneumoniae | bacterial growth |  | 8 µM, fold shift of IC90, added: amikacin |  | potentiation of amikacin | 1.1 fold
CO[C@H]1[C@H](O[C@H]([C@H]2O[C@@H](n3ccc(=O)[nH]c3=O)[C@H](O)[C@@H]2O)[C@H](NCCCNC(=O)[C@@H](NC(=O)[C@@H](NC(=O)N[C@H](C(=O)O)C(C)C)[C@@H]2CCNC(=N)N2)[C@@H](OC(=O)CCCCCCCCCCCCN(O)C(=N)N)C(C)C)C(N)=O)O[C@H](CN)[C@H]1O | Enterococcus faecium | alamar blue | NR-32065 |  |  | MIC90 | 15.2 ± 0.21 µg/mL (≈ 12.5 µM)

Some of these lines once more:
SMILES | tested on | test | system | setting | scale | endpoint | result
Cc1ccc(-c2csc(NP(=O)(O)OCC3OC(n4c[n+](Cc5ccccc5)c5c(=O)[nH]c(NC(=O)c6ccccc6)nc54)C4OC(C)(C)OC34)n2)cc1 (centres unmarked) | HepG2 | cell growth, SRB |  |  |  | IC50 | 69.5 ± 4.99 µM
